Measured values collected from several papers.
Lines come from different studies, so protocols differ. Values joined by “and” are separate records of one study, mostly repeats; a detail may differ. ± gives the spread as reported.
IDE: Insulin-degrading enzyme (IDE, Homo sapiens, UniProt P14735)

Structure (SMILES) | target or system | assay | test system | conditions | how to read | quantity | result
Cc1cnc(Nc2ccc(OCCN3CCCC3)cc2)nc1Nc1cccc(S(=O)(=O)NC(C)(C)C)c1 | iCell cardiomyocytes hiPSC-derived | impedance |  | concentration not given, 24 h | baseline: vehicle | cell index | 96.7%
C/C(=N\Nc1ccc(F)cc1)c1ccc(-c2ccc(/C(C)=N/Nc3ccc(F)cc3)cc2)cc1 | BEAS-2B |  |  | 15.5 µg/mL |  | cytotoxicity | not toxic
Cn1cnc([N+](=O)[O-])c1Sc1ccccc1C(=O)NCCn1cc(C(=O)NCc2ccccn2)c(=O)c2cc3c(cc21)OCO3 | PHA-P-stimulated PBMC pooled | cytotoxicity, XTT |  | 7 days |  | TC50 | > 100 µM
O=c1c(-c2ccccc2)coc2cc(O)ccc12 | BEAS-2B | enzyme activity, inducer, fluorogenic substrate imaging |  | 10 µM, 24 h | baseline: control | CYP1A1 induction | 0.8 fold
O=C(O)CCNc1cc(N2CCc3ccccc3CC2)nc(-c2cccnc2)n1 | HBL-1 |  |  | 0.5 µM, 120 h |  | viability | 111%
O=c1c(O)c(-c2ccccc2)oc2ccc(O)cc12 | BEAS-2B | enzyme activity, inducer, fluorogenic substrate imaging |  | 10 µM, 24 h | baseline: control | CYP1A1 induction | 1.2 fold
CC[C@H](CO)N(CCN(N=O)[C@H](CC)CO)N=O | Salmonella typhimurium | mutagenicity, Ames plate incorporation | TA100 | 2500 µg/plate, without S9, methanol |  | revertant colonies per plate | 155 ± 28
COc1c(-c2ccccc2)oc2ccccc2c1=O | BEAS-2B | enzyme activity, inducer, fluorogenic substrate imaging |  | 10 µM, 24 h | baseline: control | CYP1A1 induction | 0.75 fold
CCCC(=O)OCSc1ccccc1C(=O)NCCn1cc(C(=O)NCc2cccc(C)n2)c(=O)c2cc3c(cc21)OC(F)(F)O3 | PHA-P-stimulated PBMC pooled | cytotoxicity, XTT |  | 7 days |  | TC50 | > 100 µM
Cc1cc(O)c2c(c1)C(=O)c1cccc(O)c1C2=O | BEAS-2B | enzyme activity, inducer, fluorogenic substrate imaging |  | 10 µM, 24 h | baseline: control | CYP1A1 induction | 1.59 fold
CCCCCCCC[N+](CCCCCCCC)(CCCCCCCC)CCCCCCCC.[Br-] | hTERT-RPTEC parental | LDH release | culture medium | concentration not given, 24 h, 96-well plate |  | LDH activity in medium | 72.2 mU/mL
COc1ccc(-c2cc(=O)c3c(O)cc(O)c(-c4cc(-c5cc(=O)c6c(O)cc(OC)cc6o5)ccc4OC)c3o2)cc1 | BEAS-2B | fluorogenic substrate |  | 10 µM, 24 h | baseline: control | CYP1A1 induction | 0.58 fold
CN1c2c(C(=O)Nc3ccc(NS(C)(=O)=O)cc3)nn(-c3ccc(Cl)cc3)c2-c2ccccc2S1(=O)=O | Huh-9-13 | Nile red staining |  | 100 µM, 24 h |  | neutral lipid content | decreased
Cc1ncc([N+](=O)[O-])n1CCOC(=O)c1ccccc1 | LMH chicken hepatoma |  |  |  |  | CC50 | 269 µM
COc1cccc2c1C(=O)c1c(O)c3c(c(O)c1C2=O)C[C@@](O)(C(=O)CO)C[C@@H]3O[C@H]1C[C@H](N)[C@H](O)[C@H](C)O1 | THLE-2 transduced with Ad-CYP2D6 | metabolism-induced cytotoxicity |  | 48 h, 3D Matrigel spots |  | IC50 | 4 ± 1 µM
COc1ccc(C=NNC(=O)CSc2nc3c(C)cccc3c(=O)n2-c2ccccc2)cc1OS(C)(=O)=O | BJ1 | MTT |  | 100 µM |  | cytotoxicity | 75.6 ± 2.33%
CC(C)n1ncc2c(C(=O)NCC3(C)CNC3)cc(C3CC3)nc21 | Vero C1008 | neutral red uptake | DMEM with 2% FBS | 0.33 µM | baseline: positive control | viability | 100%
Fc1ccc(N/N=C/c2ccc(-c3cccc(/C=N/Nc4ccc(F)cc4)c3)cc2)cc1 | BEAS-2B |  |  | 31 µg/mL |  | cytotoxicity | not toxic
Cc1noc(C)c1Cn1cc(N2C(=O)CN(Cc3cccc(O)c3)C2=O)cn1 | human blood lymphocytes |  |  | 1200 µg/mL, 3 h, with 5% S9 |  | aberrant cells without gaps | 3.9%
CC(C)C[C@H](NC(=O)C[C@H](O)[C@H](CC(C)C)NC(=O)[C@H](Cc1c[nH]cn1)NC(=O)CNC(=O)[C@@H](NC(=O)[C@H](C)NC(=O)[C@H](Cc1c[nH]c2ccccc12)NC(=O)[C@H](CCC(N)=O)NC(=O)[C@@H](Cc1ccccc1)NC(=O)COCCOCCNC(=O)CCC(C(=O)O)N1CCN(CC(=O)O)CCN(CC(=O)O)CCN(CC(=O)O)CC1)C(C)C)C(N)=O (stereo partly shown) [lutetium-177 labelled] |  |  | BALB/c nu/nu mice, female, tumor | 50 pmol, 1 h, together with: PA 300 µg |  | tissue uptake | 19 ± 2 %ID/g
Cc1cc(C(=O)NC(C)(C)COc2cccc3c2C(N)=NS(=O)(=O)N3)cc(C)n1 | human peripheral blood lymphocytes | CBPI, preliminary test |  | 600 µg/mL, 24 h | baseline: vehicle control | cytotoxicity | 3%
CC(C)(c1ccc(O)cc1)c1ccc(O)cc1 | HepG2 spheroids, dissociated | annexin V-FITC/PI flow cytometry |  | 0.1 µM, 24 h |  | viable cells | 72.9 ± 6.29%
COc1ccc2[nH]ccc2c1 | uninfected HCT-8 | cytotoxicity, Hoechst nuclei count |  |  |  | EC50 | 7180 µM

Structure (SMILES) | target or system | assay | test system | conditions | how to read | quantity | result
CCCC(=O)OCSc1ccccc1C(=O)NCCn1cc(C(=O)NCc2ccccn2)c(=O)c2cc3c(cc21)OCO3 | PHA-P-stimulated PBMC pooled | cytotoxicity, XTT |  | 7 days |  | TC50 | > 100 µM
O=c1c(O)c(-c2ccc(O)cc2)oc2c(O)c(O)cc(O)c12 | BEAS-2B | enzyme activity, inducer, fluorogenic substrate imaging |  | 10 µM, 24 h | baseline: control | CYP1A1 induction | 2.1 fold
COc1cc(C(=O)NS(=O)(=O)c2ccccc2C)ccc1Cc1cn(C)c2ccc(NC(=O)OC3CCCC3)cc12 | BEAS-2B | resazurin |  | 24 h |  | highest non-cytotoxic concentration | > 128 µM
CC(C)=CCc1cc(-c2coc3cc(O)ccc3c2=O)ccc1O | BEAS-2B | enzyme activity, inducer, fluorogenic substrate imaging |  | 10 µM, 24 h | baseline: control | CYP1A1 induction | 1.28 fold
Nc1nc2c(ncn2COCCO)c(=O)[nH]1 | HEL or HeLa cells | cell viability |  | 3 (unit not given) |  | CC50 | > 250 µM
N#Cc1cccc2cc[nH]c12 | uninfected HCT-8 | cytotoxicity, Hoechst nuclei count |  |  |  | EC50 | 2320 µM
O=C(Nc1ccc2c(O)cc(S(=O)(=O)O)cc2c1)Nc1ccc2c(O)cc(S(=O)(=O)O)cc2c1 | HBL-1 |  |  | 0.1 µM, 120 h |  | viability | 119%
CCCCCCCCCCCC[N+](C)(C)CCOc1ccccc1 | PH5CH8 hepatocytes | high-content cell count |  | 72 h, oleate lipid loaded |  | CC50 | 4.9 µM
Cc1ccc2[nH]ccc2c1 | uninfected HCT-8 | cytotoxicity, Hoechst nuclei count |  |  |  | EC50 | 1200 µM
CC(=O)NS(=O)(=O)c1ccc(NC(=O)c2ccccc2C(=O)O)cc1 | PH5CH8 hepatocytes | high-content cell count |  | 72 h, oleate lipid loaded |  | CC50 | > 10 µM
Nc1nc(S)nc(O)c1N=Cc1cn(-c2ccccc2)nc1-c1ccccc1 | CCRF-CEM | cytotoxicity, differential nuclear staining |  | 48 h |  | CC50 | 13.4 ± 0.98 µM
CCCC(CCC)NC(=O)c1ccc2c(c1)OCO2 | CHO-WBL |  |  | 1.67 mg/mL, 3 h, with rat liver S9 |  | relative mitotic index | 104%
N#Cc1ccc2[nH]ccc2c1 | uninfected HCT-8 | cytotoxicity, Hoechst nuclei count |  |  |  | EC50 | 1550 µM
NS(=O)(=O)c1ccc(NC(=S)N2CCN(C/C=C/c3ccccc3)CC2)cc1 | PH5CH8 hepatocytes | high-content cell count |  | 72 h |  | CC50 | > 10 µM
COc1ccc(-c2cc(=O)c3c(O)cc(O)cc3o2)cc1-c1c(O)cc(O)c2c(=O)cc(-c3ccc(O)cc3)oc12 | BEAS-2B | enzyme activity, inducer, fluorogenic substrate imaging |  | 10 µM, 24 h | baseline: control | CYP1A1 induction | 1.17 fold
C=C(C)[C@H](CC=C(C)C)Cc1c(O)cc(OC)c(C(=O)/C=C/c2ccc(O)cc2O)c1O | COLO 205 | cytotoxicity, MTT |  | 48 h |  | IC50 | 29.4 µM
Cc1ccccc1-c1ccc([C@H]2[C@@H](CO)N3CCCCN(S(=O)(=O)c4cn(C)cn4)C[C@H]23)cc1 | IDE | enzyme activity, inhibitor, fluorogenic kinetic |  | together with: Mca-RPPGFSAFK(Dnp)-OH substrate |  | EC50 | 2.2 µM
CC(=O)Nc1cccc(-n2c(=O)n(C3CC3)c(=O)c3c(Nc4ccc(I)cc4F)n(C)c(=O)c(C)c32)c1 | COLO 205 | resazurin |  | 6.25 nM, 72 h, unit not given | baseline: DMSO | viability | 0.103 and 0.109
COC[C@@H](CC(C)C)NC(=O)c1ccc(C)c(C)c1 | primary human lymphocytes | measured: structural aberrations |  | 110 µg/mL, 20 h, without S9 |  | cells with aberrations | 0%
Cc1ccccc1-c1ccc([C@@H]2[C@@H](CO)N3C(=O)CN(C(=O)Cc4ccccn4)C[C@@H]23)cc1 | IDE | enzyme activity, inhibitor, fluorogenic kinetic |  | together with: Mca-RPPGFSAFK(Dnp)-OH substrate |  | EC50 | 2.7 µM
COc1cccc2[nH]ccc12 | uninfected HCT-8 | cytotoxicity, Hoechst nuclei count |  |  |  | EC50 | 4160 µM
CN1CCN(CCCN2c3ccccc3Sc3ccc(C(F)(F)F)cc32)CC1 | THLE-2 transduced with Ad-UGT1A4 | cytotoxicity |  | 48 h |  | IC50 | 110 ± 9.7 µM
COc1cccc(CN(CCN(CCN(C)C)Cc2ccccc2)Cc2ccccc2)c1 | WI-38 | propidium iodide flow cytometry |  | 10 µM, 21 h |  | apoptotic cells | 0.71%

Some of these lines once more:
Structure (SMILES) | target or system | assay | test system | conditions | how to read | quantity | result
N#Cc1ccc2[nH]ccc2c1 | uninfected HCT-8 | cytotoxicity, Hoechst nuclei count |  |  |  | EC50 | 1550 µM
Cc1cc(C(=O)NC(C)(C)COc2cccc3c2C(N)=NS(=O)(=O)N3)cc(C)n1 | human peripheral blood lymphocytes | CBPI, preliminary test |  | 600 µg/mL, 24 h | baseline: vehicle control | cytotoxicity | 3%
CC(C)n1ncc2c(C(=O)NCC3(C)CNC3)cc(C3CC3)nc21 | Vero C1008 | neutral red uptake | DMEM with 2% FBS | 0.33 µM | baseline: positive control | viability | 100%
O=c1c(O)c(-c2ccccc2)oc2ccc(O)cc12 | BEAS-2B | enzyme activity, inducer, fluorogenic substrate imaging |  | 10 µM, 24 h | baseline: control | CYP1A1 induction | 1.2 fold
CCCC(CCC)NC(=O)c1ccc2c(c1)OCO2 | CHO-WBL |  |  | 1.67 mg/mL, 3 h, with rat liver S9 |  | relative mitotic index | 104%
